Measurements from different studies.
Each line is one published result; not all experiments were run side by side. Values joined by “and” are separate records of one study, mostly repeats; a detail may differ. Numbers after ± are the reported error.
CYP1A2: Cytochrome P450 1A2 (CYP1A2, Homo sapiens, UniProt P05177)
Chain of UniProt P05177 (whole entry, looked up): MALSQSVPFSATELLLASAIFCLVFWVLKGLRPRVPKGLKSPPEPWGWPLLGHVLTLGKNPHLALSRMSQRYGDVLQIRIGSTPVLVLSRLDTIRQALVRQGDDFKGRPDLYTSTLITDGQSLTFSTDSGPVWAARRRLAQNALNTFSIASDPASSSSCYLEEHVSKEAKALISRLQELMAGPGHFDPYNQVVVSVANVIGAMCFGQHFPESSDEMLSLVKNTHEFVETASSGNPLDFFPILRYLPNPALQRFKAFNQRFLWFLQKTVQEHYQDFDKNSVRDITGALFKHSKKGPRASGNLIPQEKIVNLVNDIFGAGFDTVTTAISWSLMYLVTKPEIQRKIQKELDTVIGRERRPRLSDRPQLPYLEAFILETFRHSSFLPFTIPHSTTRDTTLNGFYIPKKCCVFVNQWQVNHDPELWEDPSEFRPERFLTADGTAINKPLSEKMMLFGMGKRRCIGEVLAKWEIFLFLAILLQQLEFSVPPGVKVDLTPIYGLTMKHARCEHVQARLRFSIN
CYP1B1: Cytochrome P450 1B1 (CYP1B1, Homo sapiens, UniProt Q16678)
Chain of UniProt Q16678 (whole entry, looked up): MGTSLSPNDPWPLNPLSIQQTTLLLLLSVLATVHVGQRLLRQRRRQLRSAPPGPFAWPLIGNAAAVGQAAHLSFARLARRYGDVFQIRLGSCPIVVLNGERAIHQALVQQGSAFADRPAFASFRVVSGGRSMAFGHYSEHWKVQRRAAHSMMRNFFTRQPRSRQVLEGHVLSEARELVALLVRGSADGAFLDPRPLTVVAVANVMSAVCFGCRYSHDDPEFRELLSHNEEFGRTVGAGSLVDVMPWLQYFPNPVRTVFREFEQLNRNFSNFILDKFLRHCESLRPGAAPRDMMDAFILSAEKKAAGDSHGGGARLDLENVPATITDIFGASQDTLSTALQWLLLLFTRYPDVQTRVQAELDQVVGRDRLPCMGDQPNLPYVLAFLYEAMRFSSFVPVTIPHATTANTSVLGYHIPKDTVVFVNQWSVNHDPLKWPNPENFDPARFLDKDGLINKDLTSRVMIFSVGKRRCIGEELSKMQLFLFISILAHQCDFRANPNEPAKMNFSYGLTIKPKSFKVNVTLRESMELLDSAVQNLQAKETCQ
CYP2D6: Cytochrome P450 2D6 (CYP2D6, Homo sapiens, UniProt P10635)
Chain of UniProt P10635 (whole entry, looked up): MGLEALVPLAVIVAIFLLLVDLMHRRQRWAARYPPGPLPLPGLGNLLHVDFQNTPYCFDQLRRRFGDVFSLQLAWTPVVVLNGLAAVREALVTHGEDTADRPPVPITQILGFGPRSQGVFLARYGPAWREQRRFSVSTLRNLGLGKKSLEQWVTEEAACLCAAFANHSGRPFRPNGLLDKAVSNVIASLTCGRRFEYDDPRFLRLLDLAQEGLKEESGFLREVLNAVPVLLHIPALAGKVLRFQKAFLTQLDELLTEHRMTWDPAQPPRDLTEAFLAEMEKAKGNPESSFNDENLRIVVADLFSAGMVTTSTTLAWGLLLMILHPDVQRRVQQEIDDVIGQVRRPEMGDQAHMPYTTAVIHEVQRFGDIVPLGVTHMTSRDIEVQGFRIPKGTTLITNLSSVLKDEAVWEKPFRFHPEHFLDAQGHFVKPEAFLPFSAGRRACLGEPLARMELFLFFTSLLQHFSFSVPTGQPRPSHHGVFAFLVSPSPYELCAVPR
Ahr: Aryl hydrocarbon receptor (Ahr, Mus musculus, UniProt P30561)
Chain of UniProt P30561 (whole entry, looked up): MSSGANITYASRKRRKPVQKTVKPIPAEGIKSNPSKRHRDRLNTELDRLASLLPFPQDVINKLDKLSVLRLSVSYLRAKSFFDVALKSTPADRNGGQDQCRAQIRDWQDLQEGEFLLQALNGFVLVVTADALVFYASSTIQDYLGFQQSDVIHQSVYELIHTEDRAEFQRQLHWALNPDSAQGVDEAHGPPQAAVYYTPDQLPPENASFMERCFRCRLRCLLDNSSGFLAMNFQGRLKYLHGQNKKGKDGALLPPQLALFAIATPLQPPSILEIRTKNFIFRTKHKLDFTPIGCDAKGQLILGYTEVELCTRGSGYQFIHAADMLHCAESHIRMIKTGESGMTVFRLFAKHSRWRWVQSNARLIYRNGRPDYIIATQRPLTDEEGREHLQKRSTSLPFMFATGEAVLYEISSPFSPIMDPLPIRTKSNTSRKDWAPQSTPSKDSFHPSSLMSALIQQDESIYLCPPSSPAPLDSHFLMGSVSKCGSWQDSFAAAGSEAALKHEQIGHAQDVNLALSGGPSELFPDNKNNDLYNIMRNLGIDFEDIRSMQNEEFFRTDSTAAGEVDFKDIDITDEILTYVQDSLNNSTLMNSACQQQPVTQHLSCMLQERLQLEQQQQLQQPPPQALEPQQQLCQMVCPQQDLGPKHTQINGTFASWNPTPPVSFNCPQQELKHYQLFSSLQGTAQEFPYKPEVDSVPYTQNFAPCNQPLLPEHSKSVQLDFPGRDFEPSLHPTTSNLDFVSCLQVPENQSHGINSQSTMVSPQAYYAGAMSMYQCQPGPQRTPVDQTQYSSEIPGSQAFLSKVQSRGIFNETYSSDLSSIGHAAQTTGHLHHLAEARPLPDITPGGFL
CYP2E1: Cytochrome P450 2E1 (CYP2E1, Homo sapiens, UniProt P05181)
Chain of UniProt P05181 (whole entry, looked up): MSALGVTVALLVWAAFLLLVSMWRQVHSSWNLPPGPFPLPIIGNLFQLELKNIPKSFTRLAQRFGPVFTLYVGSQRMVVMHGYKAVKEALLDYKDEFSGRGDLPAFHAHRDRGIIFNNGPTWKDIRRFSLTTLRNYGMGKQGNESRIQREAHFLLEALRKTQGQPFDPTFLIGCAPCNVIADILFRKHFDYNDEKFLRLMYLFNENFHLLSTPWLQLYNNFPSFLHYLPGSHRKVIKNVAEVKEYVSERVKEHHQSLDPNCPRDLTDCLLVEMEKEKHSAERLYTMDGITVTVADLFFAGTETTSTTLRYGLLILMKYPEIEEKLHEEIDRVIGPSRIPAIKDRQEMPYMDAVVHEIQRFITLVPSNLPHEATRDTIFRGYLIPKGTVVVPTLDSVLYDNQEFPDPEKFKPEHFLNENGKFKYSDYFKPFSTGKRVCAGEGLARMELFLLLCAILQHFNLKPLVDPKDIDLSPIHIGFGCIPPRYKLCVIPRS
Chain of UniProt O94956 (whole entry, looked up): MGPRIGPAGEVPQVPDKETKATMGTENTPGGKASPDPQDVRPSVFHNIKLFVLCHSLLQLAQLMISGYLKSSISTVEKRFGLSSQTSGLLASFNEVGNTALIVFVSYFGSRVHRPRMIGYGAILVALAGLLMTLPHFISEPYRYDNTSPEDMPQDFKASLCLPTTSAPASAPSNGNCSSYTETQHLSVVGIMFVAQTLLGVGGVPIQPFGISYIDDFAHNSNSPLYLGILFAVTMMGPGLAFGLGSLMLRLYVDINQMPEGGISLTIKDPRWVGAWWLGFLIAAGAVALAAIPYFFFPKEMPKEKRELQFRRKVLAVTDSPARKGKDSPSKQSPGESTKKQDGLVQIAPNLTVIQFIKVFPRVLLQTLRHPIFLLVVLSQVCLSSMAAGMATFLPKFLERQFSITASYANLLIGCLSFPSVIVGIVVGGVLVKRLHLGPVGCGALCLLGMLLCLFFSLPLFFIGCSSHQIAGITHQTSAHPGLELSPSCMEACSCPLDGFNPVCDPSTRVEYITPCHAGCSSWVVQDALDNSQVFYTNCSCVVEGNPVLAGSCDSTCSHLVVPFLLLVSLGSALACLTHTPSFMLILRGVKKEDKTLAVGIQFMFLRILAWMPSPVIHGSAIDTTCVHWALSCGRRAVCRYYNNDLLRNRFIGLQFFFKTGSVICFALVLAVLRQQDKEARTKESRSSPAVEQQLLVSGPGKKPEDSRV
Chain of UniProt P13866 (whole entry, looked up): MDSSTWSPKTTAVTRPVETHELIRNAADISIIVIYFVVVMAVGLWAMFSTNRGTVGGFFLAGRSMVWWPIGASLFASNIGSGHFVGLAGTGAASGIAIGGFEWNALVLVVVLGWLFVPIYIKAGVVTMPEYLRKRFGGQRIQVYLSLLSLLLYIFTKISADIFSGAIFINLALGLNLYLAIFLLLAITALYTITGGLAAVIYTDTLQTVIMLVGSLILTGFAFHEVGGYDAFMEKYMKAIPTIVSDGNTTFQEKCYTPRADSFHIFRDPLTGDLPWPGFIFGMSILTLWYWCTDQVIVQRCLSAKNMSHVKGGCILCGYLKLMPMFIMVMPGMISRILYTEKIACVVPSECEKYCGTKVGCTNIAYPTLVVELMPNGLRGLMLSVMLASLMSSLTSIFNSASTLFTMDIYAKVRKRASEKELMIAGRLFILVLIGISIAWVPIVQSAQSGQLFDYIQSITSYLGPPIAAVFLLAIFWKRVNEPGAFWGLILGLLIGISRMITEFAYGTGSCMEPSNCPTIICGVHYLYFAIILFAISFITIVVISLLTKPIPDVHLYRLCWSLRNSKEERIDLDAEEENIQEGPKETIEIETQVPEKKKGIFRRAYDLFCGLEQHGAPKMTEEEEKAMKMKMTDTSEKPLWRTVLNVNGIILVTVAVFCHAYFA
Chain of UniProt P05981 (whole entry, looked up): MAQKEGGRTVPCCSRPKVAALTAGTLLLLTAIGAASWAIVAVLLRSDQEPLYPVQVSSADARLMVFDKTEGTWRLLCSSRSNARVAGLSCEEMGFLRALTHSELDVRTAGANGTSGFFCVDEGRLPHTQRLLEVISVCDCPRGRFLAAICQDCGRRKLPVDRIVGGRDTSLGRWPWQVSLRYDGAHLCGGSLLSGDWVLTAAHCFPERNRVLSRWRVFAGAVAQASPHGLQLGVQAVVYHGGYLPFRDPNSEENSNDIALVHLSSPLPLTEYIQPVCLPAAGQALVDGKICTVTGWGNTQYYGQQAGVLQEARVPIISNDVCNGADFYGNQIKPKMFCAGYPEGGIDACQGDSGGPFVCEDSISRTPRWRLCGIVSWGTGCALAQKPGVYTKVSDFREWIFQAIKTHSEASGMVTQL

Structure (SMILES)	target	test	system	conditions	how to read	endpoint	value
CCC[S+]([O-])c1ccc2[nH]c(NC(=O)OC)nc2c1 (stereo not drawn)	CYP1A2	inhibitor	human liver microsomes	2 µM, pH 7.4, added: phenacetin	–	inhibition	3.17%
C#CCOCc1ccccc1-c1ccccc1	CYP1B1	reverse type I spectral binding	–	pH 7.4	–	Kd	146 ± 15 µM
CC(C)(O)c1ccccc1CC[C@@H](SCC1(CC(=O)O)CC1)c1cccc(/C=C/c2ccc3ccc(Cl)cc3n2)c1	CYP2D6	inhibitor	human liver microsomes	10 µM, pH 7.4, added: dextromethorphan	–	inhibition	< 0%
CCCC[C@@H]1NC(=O)[C@H](C(C)C)NC(=O)[C@H](Cc2c[nH]cn2)NC(=O)[C@H]([C@@H](C)CC)NC(=O)[C@H](CC(=O)O)NC(=O)[C@@H](NC(=O)C[C@H](CC(N)=O)NC(=O)[C@@H]2CCCN2C(=O)C[C@H](CCC(=O)O)NC(=O)[C@@H](N)C(C)C)CSSC[C@@H](C(=O)N[C@@H](Cc2ccccc2)C(=O)N[C@H]2CNC[C@@H]2C(=O)N[C@@H](CCCNC(=N)N)C(=O)N[C@H](CC(N)=O)CC(C)C)NC(=O)[C@H](CCC(=O)O)NC(=O)[C@H](Cc2c[nH]c3ccccc23)NC(=O)C[C@H](CCC(=O)O)NC(=O)C[C@H](Cc2c[nH]c3ccccc23)NC1=O	Proteinase K (PROK, Engyodontium album, UniProt P06873)	proteolytic stability	TBS	50 µM, pH 7.5, 5% DMSO, added: proteinase K 10 µg/mL	–	half-life	300 min
COCCOCCOc1cnc(C2=N[C@@](C)(C(=O)[O-])CS2)c(O)c1.[Na+]	Fe(III)	Job's plot	–	pH 7.4, total 1.0 mM	–	Job's plot maximum mole fraction	0.676
c1ccc2cc3c(ccc4ccccc43)cc2c1	CYP1B1	binding, fluorescence	–	–	–	Kd	< 2.5 µM and 2 µM
CC(C)C=Cc1c(O)cc(/C=C/c2ccc(O)c(O)c2)cc1O	UGT1A9 human	4'-O-glucuronide formation, substrate	–	pH 7.4	–	Km	188 µM
Clc1cc(-c2cc(Cl)c(Cl)c(Cl)c2)cc(Cl)c1Cl	Ahr	reporter gene, agonist	Hepa-1c1c7	24 h	–	EC50	25.7 ± 4.6 nM
C[C@]12CC[C@@H]3c4ccc(OS(=O)(=O)O)cc4CC[C@H]3[C@@H]1CCC2=O	SLCO2B1 (Homo sapiens, UniProt O94956)	substrate	HEK293 overexpressing OATP2B1	–	baseline: vector control	cellular uptake	increased
O=C1Cc2cc(CCN3CCN(c4nsc5ccccc45)CC3)c(Cl)cc2N1	CYP2D6	inhibitor	human liver microsomes	2 µM, pH 7.4, added: dextromethorphan	–	inhibition	< 0%
OC[C@H](O)c1ccccc1	CYP2E1	enzyme activity, inhibitor	human liver microsomes	concentration not given, at high concentration	–	residual activity	26%
CC[N+]1=C(C=CC=CC=C2N(CCCCCC(=O)NCCN3C(=O)CC(SC[C@@H](NC(=O)[C@@H](CCCNC(=N)N)NC(=O)[C@@H](CCCNC(=N)N)NC(=O)[C@@H](CCCNC(=N)N)NC(=O)[C@@H](CCCNC(=N)N)NC(=O)[C@@H](CCCNC(=N)N)NC(=O)[C@@H](CCCNC(=N)N)NC(=O)[C@@H](CCCNC(=N)N)NC(=O)[C@@H](CCCNC(=N)N)NC(=O)[C@@H](CCCNC(=N)N)NC(=O)[C@H](CC(C)C)NC(=O)[C@H](CCCCN)NC(=O)[C@H](CC(C)C)NC(=O)[C@H](CCC(N)=O)NC(=O)[C@H](CC(C)C)NC(=O)[C@H](CCCNC(=N)N)NC(=O)CCCCCNC(=O)[C@@H](CCC(=O)O)NC(=O)[C@@H](CCC(=O)O)NC(=O)[C@@H](CCC(=O)O)NC(=O)[C@@H](CCC(=O)O)NC(=O)[C@@H](CCC(=O)O)NC(=O)[C@@H](CCC(=O)O)NC(=O)[C@@H](CCC(=O)O)NC(=O)[C@@H](CCC(=O)O)NC(=O)[C@H](N)CCC(=O)O)C(N)=O)C3=O)c3ccc(S(=O)(=O)O)cc3C2(C)C)C(C)(C)c2cc(S(=O)(=O)[O-])ccc21 (stereo partly drawn)	HPN (Homo sapiens, UniProt P05981)	substrate cleavage, substrate, Tricine gel	–	5 µM, added: enzyme 50 nM	–	cleavage	< 3%
O=S(=O)(O)Oc1ccc(-c2ccc(Cl)c(Cl)c2)cc1	sulfatase, human liver microsomes	substrate	–	pH 7.4, 37 °C	–	Km	16.6 ± 3.2 µM
CC(C)C=Cc1c(O)cc(/C=C/c2ccc(O)cc2)cc1O	UGT1A9 human	4'-O-glucuronide formation, substrate	–	pH 7.4	–	Km	21.3 ± 5.2 µM
O=c1c(O[C@@H]2O[C@H](CO)[C@@H](O)[C@H](O)[C@H]2O)c(-c2ccc(O)c(O)c2)oc2cc(O)cc(O)c12	SLC5A1 (Homo sapiens, UniProt P13866)	–	Caco-2 BBe1, SLC5A1 siRNA knockdown	50 µM, 4 h	baseline: scrambled siRNA over knockdown	transport rate reduction	1.92 fold
O=[N+]([O-])c1ccc(O)cc1	CYP2E1	substrate	pooled human liver microsomes	250 µM, pH 7.4, added enzyme to P450 molar ratio 0.96	–	hydroxylation rate	8.5 ± 1.4 min⁻¹
Oc1ccc(/C=C/c2cc(O)cc(O)c2)cc1	UGT1A1 human	4'-O-glucuronide formation, substrate	–	pH 7.4	–	Km	25.3 ± 4.8 µM
C#CCOCc1cccc2ccccc12	CYP1B1	reverse type I spectral binding	–	pH 7.4	–	Kd	92 ± 10 µM
COc1c(O[C@@H]2O[C@H](C(=O)O)[C@@H](O)[C@H](O)[C@H]2O)cc(O)c2c(=O)cc(-c3ccccc3)oc12	Beta-glucuronidase (Rattus norvegicus, UniProt P06760)	hydrolysis, substrate	rat small intestine S9 fraction	–	–	Km	25 to 30 µM
CSc1nc2cc(Cl)c(Oc3cccc(Cl)c3Cl)cc2[nH]1	CYP1A2	inhibitor	human liver microsomes	10 µM, pH 7.4, added: phenacetin	–	inhibition	86.1%
Clc1ccc(-c2ccc(Cl)c(Cl)c2Cl)c(Cl)c1Cl	Ahr	binding, competitor	–	in vitro expressed receptor, added: [3H]TCDD	–	Ki	1420 nM
C#CCOc1ccc2ccccc2c1	CYP1B1	reverse type I spectral binding	–	pH 7.4	–	Kd	97 ± 19 µM
Clc1ccc(-c2cc(Cl)c(Cl)c(Cl)c2)cc1	Ahr	binding, competitor	–	in vitro expressed receptor, added: [3H]TCDD	–	Ki	34 nM
c1ccc(CCN2CCCCC2)cc1	KCNH2 (Homo sapiens, UniProt Q12809)	ligand displacement, radioligand	–	–	–	Ki	> 10000 nM

For quick reference, copied from above:
Structure (SMILES)	target	test	system	conditions	how to read	endpoint	value
O=C1Cc2cc(CCN3CCN(c4nsc5ccccc45)CC3)c(Cl)cc2N1	CYP2D6	inhibitor	human liver microsomes	2 µM, pH 7.4, added: dextromethorphan	–	inhibition	< 0%
OC[C@H](O)c1ccccc1	CYP2E1	enzyme activity, inhibitor	human liver microsomes	concentration not given, at high concentration	–	residual activity	26%
CC[N+]1=C(C=CC=CC=C2N(CCCCCC(=O)NCCN3C(=O)CC(SC[C@@H](NC(=O)[C@@H](CCCNC(=N)N)NC(=O)[C@@H](CCCNC(=N)N)NC(=O)[C@@H](CCCNC(=N)N)NC(=O)[C@@H](CCCNC(=N)N)NC(=O)[C@@H](CCCNC(=N)N)NC(=O)[C@@H](CCCNC(=N)N)NC(=O)[C@@H](CCCNC(=N)N)NC(=O)[C@@H](CCCNC(=N)N)NC(=O)[C@@H](CCCNC(=N)N)NC(=O)[C@H](CC(C)C)NC(=O)[C@H](CCCCN)NC(=O)[C@H](CC(C)C)NC(=O)[C@H](CCC(N)=O)NC(=O)[C@H](CC(C)C)NC(=O)[C@H](CCCNC(=N)N)NC(=O)CCCCCNC(=O)[C@@H](CCC(=O)O)NC(=O)[C@@H](CCC(=O)O)NC(=O)[C@@H](CCC(=O)O)NC(=O)[C@@H](CCC(=O)O)NC(=O)[C@@H](CCC(=O)O)NC(=O)[C@@H](CCC(=O)O)NC(=O)[C@@H](CCC(=O)O)NC(=O)[C@@H](CCC(=O)O)NC(=O)[C@H](N)CCC(=O)O)C(N)=O)C3=O)c3ccc(S(=O)(=O)O)cc3C2(C)C)C(C)(C)c2cc(S(=O)(=O)[O-])ccc21 (stereo partly drawn)	HPN (Homo sapiens, UniProt P05981)	substrate cleavage, substrate, Tricine gel	–	5 µM, added: enzyme 50 nM	–	cleavage	< 3%
O=S(=O)(O)Oc1ccc(-c2ccc(Cl)c(Cl)c2)cc1	sulfatase, human liver microsomes	substrate	–	pH 7.4, 37 °C	–	Km	16.6 ± 3.2 µM
